Assay results collected from several papers.
Parts stem from different laboratories: compare values within a part only. Positions count from the first letter of the parent shown.
Chain of UniProt P23458 (whole entry, looked up): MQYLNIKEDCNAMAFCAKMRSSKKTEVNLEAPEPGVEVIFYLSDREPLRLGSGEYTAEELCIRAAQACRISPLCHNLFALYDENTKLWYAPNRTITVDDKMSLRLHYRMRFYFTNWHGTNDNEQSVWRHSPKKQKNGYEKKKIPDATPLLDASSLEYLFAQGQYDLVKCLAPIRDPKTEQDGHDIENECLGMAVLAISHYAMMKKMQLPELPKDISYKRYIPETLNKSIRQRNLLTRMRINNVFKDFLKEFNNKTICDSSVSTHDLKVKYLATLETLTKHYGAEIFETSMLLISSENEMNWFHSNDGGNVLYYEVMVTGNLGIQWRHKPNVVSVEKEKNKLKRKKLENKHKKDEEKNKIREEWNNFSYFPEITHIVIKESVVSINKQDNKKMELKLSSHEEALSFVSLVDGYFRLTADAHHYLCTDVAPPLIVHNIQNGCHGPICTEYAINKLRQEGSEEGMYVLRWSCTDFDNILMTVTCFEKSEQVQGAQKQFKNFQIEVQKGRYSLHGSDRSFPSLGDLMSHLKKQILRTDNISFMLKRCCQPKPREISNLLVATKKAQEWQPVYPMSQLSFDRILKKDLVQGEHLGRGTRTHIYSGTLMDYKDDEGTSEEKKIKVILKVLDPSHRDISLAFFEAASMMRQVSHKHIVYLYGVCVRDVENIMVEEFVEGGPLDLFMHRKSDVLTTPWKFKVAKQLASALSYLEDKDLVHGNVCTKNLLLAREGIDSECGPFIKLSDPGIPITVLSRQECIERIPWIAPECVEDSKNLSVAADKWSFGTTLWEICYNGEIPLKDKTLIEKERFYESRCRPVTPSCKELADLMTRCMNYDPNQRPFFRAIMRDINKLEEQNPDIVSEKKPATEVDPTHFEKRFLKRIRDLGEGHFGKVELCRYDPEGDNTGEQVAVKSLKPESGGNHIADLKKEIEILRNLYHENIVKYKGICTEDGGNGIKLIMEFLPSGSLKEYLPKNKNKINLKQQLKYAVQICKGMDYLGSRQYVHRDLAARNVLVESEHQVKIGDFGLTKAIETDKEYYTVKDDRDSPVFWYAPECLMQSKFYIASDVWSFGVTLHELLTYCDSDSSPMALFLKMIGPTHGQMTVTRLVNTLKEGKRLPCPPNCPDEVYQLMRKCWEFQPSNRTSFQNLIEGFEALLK

Series 1 — read-out: peptide-MHC binding; form: peptide; concentration: concentration not given
Target: HLA class I histocompatibility antigen, A alpha chain, allele A*69:01 (Homo sapiens, UniProt P04439)
Molecule	binding
DAAAPLPPV	active
DAAVVFPPV	active
FLGRIWPS	inactive

Series 2 — target: UBE2A UBC core domain (UniProt P49459); method: yeast two-hybrid; sample: yeast; setting: mostly zero background; relative to: not given; reading: higher = stronger interaction
Chain of UniProt P49459 (whole entry, looked up): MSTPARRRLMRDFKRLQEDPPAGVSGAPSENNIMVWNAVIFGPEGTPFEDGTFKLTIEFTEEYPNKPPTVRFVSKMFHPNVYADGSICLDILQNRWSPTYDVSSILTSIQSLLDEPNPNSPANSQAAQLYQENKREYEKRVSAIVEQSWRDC
B1: MSL2 RING domain (UniProt Q9HCI7); chain LLPYFRQSLSCCVCGHLLQDPIAPTNSTCQHYVCKTCKGKKMMMKPSCSWCKDYEQFEENKQ
B2: RNF150 RING domain (UniProt Q9ULK6); chain DKETESDFDNCAVCIEGYKPNDVVRILPCRHLFHKSCVDPWLLDHRTCPMCKMNILKALGIP
B3: RNF149 RING domain (UniProt Q8NC42); chain EKGIDVDAENCAVCIENFKVKDIIRILPCKHIFHRICIDPWLLDHRTCPMCKLDVIKALGYW
B4: TRIM3 RING domain (UniProt O75382); chain VQPMDKQFLVCSICLDRYQCPKVLPCLHTFCERCLQNYIPAQSLTLSCPVCRQTSILPEQGV
B5: RFPL2 RING domain (UniProt O75678); chain MAALFQEASSCPVCSDYLEKPMSLECGCAVCLKCINSLQKEPHGEDLLCCCSSMVSRKNKIRR
B6: RNF4 RING domain (UniProt P78317); chain TGLRPSGTVSCPICMDGYSEIVQNGRLIVSTECGHVFCSQCLRDSLKNANTCPTCRKKINHKRYHP
B7: TRIM15 RING domain (UniProt Q9C019); chain SLKVVHELPACTLCAGPLEDAVTIPCGHTFCRLCLPALSQMGAQSSGKILLCPLCQEEEQAETPMA
Molecule	lacZ reporter activity
B1 (MSL2 RING domain)	0
B2 (RNF150 RING domain)	0
KRQCSDVDDICSICQAEFQKPILLICQHIFCEECMTLWFNREKTCPLCRTVISDHINKW (RNFT1 RING domain (UniProt Q5M7Z0))	0
B3 (RNF149 RING domain)	0
B4 (TRIM3 RING domain)	0
B5 (RFPL2 RING domain)	0
B6 (RNF4 RING domain)	0
B7 (TRIM15 RING domain)	0

Series 3 — target: CCNE1, cyclin fold, Cln2 fusion (human); method: yeast growth competition, sequencing; sample: yeast; setting: strong parent motif; relative to: not given; reading: higher = stronger binding
Starting sequence: viral docking peptide; KGVKRKLFAEDSS; partner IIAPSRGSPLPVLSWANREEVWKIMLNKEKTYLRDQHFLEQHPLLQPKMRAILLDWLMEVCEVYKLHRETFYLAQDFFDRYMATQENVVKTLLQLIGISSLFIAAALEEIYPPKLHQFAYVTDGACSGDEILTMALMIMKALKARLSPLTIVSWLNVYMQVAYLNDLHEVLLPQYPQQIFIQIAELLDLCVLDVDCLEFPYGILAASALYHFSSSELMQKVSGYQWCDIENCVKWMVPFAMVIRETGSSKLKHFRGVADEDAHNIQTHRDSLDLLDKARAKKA
Variant	normalised enrichment score
KFVKRKLFAEDSS [G2F]	7.2
KGVKRKLFAEDQS [S12Q]	6.75
KGVKRKLFAEISS [D11I]	6.68
KGVKGKLFAEDSS [R5G]	0.0174
KGVKSKLFAEDSS [R5S]	0.134
KIVKRKLFAEDSS [G2I]	6.06
KGVKRKLFAYDSS [E10Y]	6.18
KGVKRKHFAEDSS [L7H]	-0.0536

Single results of other studies
SMILES	target or system	assay	conditions	how to read	quantity	value
CC(=O)/N=c1/sc(S(N)(=O)=O)nn1C	HEK-293T/ACE2	Hoechst nuclei count	concentration not given, 16 (unit not given)	relative to: vehicle	viability	103%
COC[C@H]1OC(=O)c2coc3c2[C@@]1(C)C1=C(C3=O)[C@@H]2CCC(=O)[C@@]2(C)C[C@H]1OC(C)=O	JAK1 (Homo sapiens, UniProt P23458)	enzyme activity, inhibitor	0.5 µM	relative to: control	remaining activity	90.9%
NCCCC(N)(C(=O)O)C(F)F (stereo not shown)	HEK-293T/ACE2	Hoechst nuclei count	concentration not given, 16 (unit not given)	relative to: vehicle	viability	107%

For quick reference, copied from above (series 3):
Variant	normalised enrichment score
KGVKRKHFAEDSS [L7H]	-0.0536
